Assay results pooled from the literature.
A part holds a random share of what one study measured. Changes are numbered by the printed parent chain.

Study 1 — technique: competition protein-binding microarray; molecule type: double-stranded DNA, one strand shown; medium: in vitro; concentration: 2 µM; with: Cbf1 competitor, 0.05 µM; direction: higher = stronger binding
Target: Phosphate system positive regulatory protein PHO4, full length, GST-tagged (PHO4, Saccharomyces cerevisiae, UniProt P07270, residues 1-312)
Setting: whole 60-bp probe, lowest competitor level
Residues (chain): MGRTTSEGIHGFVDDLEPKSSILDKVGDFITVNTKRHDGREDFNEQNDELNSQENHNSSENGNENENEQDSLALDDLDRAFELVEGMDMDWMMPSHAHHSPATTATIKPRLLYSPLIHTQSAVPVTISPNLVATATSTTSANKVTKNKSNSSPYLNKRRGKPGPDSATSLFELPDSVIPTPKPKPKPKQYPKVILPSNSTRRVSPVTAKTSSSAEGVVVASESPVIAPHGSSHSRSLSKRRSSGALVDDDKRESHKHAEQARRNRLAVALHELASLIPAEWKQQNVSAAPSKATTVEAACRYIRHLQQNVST
Strand | fluorescence intensity
ATCCAGAACCCGTATCGCGTGCAAACAAAGAGATTTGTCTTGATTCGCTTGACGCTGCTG | 7950 a.u.
TACATATAACGTATACGTTAGAAAAATTTGAATACAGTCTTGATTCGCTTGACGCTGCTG | 3630 a.u.
CATCTTCTTACATCGCACGTGATGGTAAACTAGTAAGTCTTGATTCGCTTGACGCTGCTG | 21100 a.u.
TTGCATAGTCAGTGTGGCGTGCAAACTCCACAGAATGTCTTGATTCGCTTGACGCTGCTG | 6950 a.u.
AATTTAAGCCTTGGCAACGTGTTGAACCAAGTCGACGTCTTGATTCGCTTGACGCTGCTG | 11900 a.u.
TAGCTAGGGAGCCCTTGCATGACAATTCTGCTAACAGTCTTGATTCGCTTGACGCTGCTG | 3610 a.u.
TGGGCCTGAAAACTACACGTGGTGAGAGCCACAGTAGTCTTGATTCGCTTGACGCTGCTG | 16400 a.u.
AAAGCGGTAATTTGAATCGTGGGTGCAGATATCTATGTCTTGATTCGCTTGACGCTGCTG | 8200 a.u.
CGGGGTTAAGTTTGTTTTGTGGGTGGCTTGCAGCAGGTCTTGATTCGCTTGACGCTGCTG | 4290 a.u.
TATTTAACTCCATTTCACGTGATGGGTTTGAAAGAAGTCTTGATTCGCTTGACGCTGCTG | 13700 a.u.
CATACCCAACCTTTTCACGTGGCGTAAGATATTTGTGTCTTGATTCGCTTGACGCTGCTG | 14500 a.u.
ACTTGGCCCTATTCATCCGTGACGGGATCATATCTTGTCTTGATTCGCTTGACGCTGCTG | 3640 a.u.
TAAAATGAAAAATGATCCGTGATGGGAAAAGTTATAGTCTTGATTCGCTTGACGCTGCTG | 4200 a.u.
CTGCCATTGCTGAAGCTCGTGCTTTCGAAGAAAACTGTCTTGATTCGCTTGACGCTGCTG | 11900 a.u.
TTCTTGGAAAGAACCGTCGTGGGTATAACCAGACAAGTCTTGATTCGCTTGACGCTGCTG | 6340 a.u.
AAAGCGGTAATTTGCTCGGTGGGTGCAGATATCTATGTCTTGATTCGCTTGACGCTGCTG | 3890 a.u.
GGCCAAACAGTTGGGCACATGGCAGGAGATGTAGCCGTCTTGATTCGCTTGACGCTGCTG | 10700 a.u.
GTCCGCTTACGTCTGTGCGTGCGGATTGTCCCACAAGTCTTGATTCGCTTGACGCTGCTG | 8760 a.u.
AAAGCGGTAATTTGCAGCGTGGGTGCAGATATCTATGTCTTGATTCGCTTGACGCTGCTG | 8680 a.u.
TTTGGCGCAAATTACCATGTGAGCGAGCGGGAATAAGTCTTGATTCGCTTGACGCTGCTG | 6220 a.u.
ACCTAGAAGAAGCCACTCGGGCACTAACTCGCCAGGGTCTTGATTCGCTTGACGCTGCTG | 4070 a.u.

Study 2 — technique: RNA Bind-n-Seq; molecule type: RNA; medium: in vitro; concentration: not given; relative to: input RNA pool; direction: higher = stronger binding
Target: RING finger protein unkempt homolog, zinc fingers 1-6, GST-SBP tag (UNK, Homo sapiens, UniProt Q9C0B0, residues 30-357)
UniProt Q9C0B0, sequence (30-357, looked up): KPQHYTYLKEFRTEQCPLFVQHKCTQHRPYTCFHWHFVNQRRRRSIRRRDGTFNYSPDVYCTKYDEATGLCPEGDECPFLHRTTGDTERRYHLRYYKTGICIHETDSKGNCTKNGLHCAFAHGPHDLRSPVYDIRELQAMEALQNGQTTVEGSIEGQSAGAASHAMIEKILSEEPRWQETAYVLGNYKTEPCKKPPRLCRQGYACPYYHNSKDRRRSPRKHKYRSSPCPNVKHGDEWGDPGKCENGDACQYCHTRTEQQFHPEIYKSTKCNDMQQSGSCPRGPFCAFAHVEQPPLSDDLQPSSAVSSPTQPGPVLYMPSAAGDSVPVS
Setting: RNA with constant flanks, human-mouse chimeric sites, ends assumed
Strand | bound/input enrichment [ratio]
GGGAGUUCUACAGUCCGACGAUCGAAACAUUUAAAUUUAAAGAAGCUGUUGUUUUAGGGAGUACGGACUUCCUAGAAGAUGAUAUAGAGAAAAUUGUAGAAGAACUGGGGAAAGAGUAUAAGGGCAACGCCUACCAUCUGAUGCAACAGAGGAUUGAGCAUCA | 1.75
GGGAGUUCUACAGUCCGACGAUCCCAAGUGAUUCAUCCCAAGGACAGGCCACCCCAUUUGAUGCCUGGACUGAUGACAGUAUGGAAGGGCCUAGUCAAAAUGUUGAAGCUGAGUCAAUUCAGGAUGCCAUGAGUAUGGAAGAGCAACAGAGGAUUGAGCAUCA | 0.243
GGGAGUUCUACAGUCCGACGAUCAACUUCGUACAUAGAUUUCCCUUUGUAGCUGUUUCAAUUGGCUUCCUUGUGAAUAAAGAGAUGGAGUUUGGAAUUGUGUACAGCUGUGUGGAAGAUAAGAUGUACACCGGCAGGAAAGGGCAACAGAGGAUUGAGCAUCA | 0.82
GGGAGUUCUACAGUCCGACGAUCUUUCUACUGCAGCAAACGAUGCUAAGAAUUAAGGAUCCUAAGAAGUCACUGGAUUUUUAUACGAGGGUUCUUGGACUGACGCUAAUCCAGAAGCUUGACUUCCCUGCUAUGAAGUUCUCGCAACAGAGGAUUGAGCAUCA | 0.127
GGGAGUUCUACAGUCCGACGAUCGCCACCAAUUCCAGCCAACAUGACCCUUGCUGCCUACAAAGAGAAGAUGAAGGAGCUCCCGCUGGUGUCUCUGUUCUGCUCCUGCUUCCUGGCCGAUCCCCUGAAUAAGUCGUCCUACAACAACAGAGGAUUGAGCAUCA | 0.35
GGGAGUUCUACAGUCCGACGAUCCGGAGCCCUCCUCUCCCACAGGCCCAAGAUAUAACCCACCAGUGCCUUUUGUCUUCCUGUCAGCUCUAAUCAAUCAUCCUGUCCUCUGUCCCUCUCACCAAGUGCCCAAAGUGGGGAGGGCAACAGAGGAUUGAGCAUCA | 0.533
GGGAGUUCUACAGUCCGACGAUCUCUUAACUUAUUCAUUUAACUUAUUUUUAUAGCUAGAUAAAUAUUGUUAGUCUUAGUCAAUAGCUCACAUCUUUACAGAAGCAUGCCCUCCCUGUCCAUUUGUCUUAUAACAUGACCCAGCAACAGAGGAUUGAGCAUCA | 13
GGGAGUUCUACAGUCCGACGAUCACAGUUAUAUUGUUGAGUUUCAUUUUCAUAUAUUCUUAUGGUGUCUGCUUGCCUGUGACUUCUGGUAAAAUAAAAUAAGCCUUUGAAAAUAUUUUAGAUUUAACAUUAACAUUUUCUAAACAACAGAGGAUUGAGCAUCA | 3.75
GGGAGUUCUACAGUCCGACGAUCGAUCUCGUCUGAGCAUCAGGGGCCUCCUUUCGUAUAGUCACUGCUUCUGCAUCAGAUACUUUCAGCUGCAACUCCCUACUGGGUGGGGCACCCAUUUCAGGCAGAAGGUUUUGGUACCCUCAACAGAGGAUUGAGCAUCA | 0.252
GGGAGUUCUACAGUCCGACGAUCUCUGGUCAUACUCGUGCGUAUGGUGUUUGCUUUGUGGACACUUCACUGGGCAAGUUUUUCAUAGGUCAGUUUUCGGAUGACCGCCACUGUUCCAGAUUUAGGACGCUAGUGGCUCACUAUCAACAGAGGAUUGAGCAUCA | 0.223
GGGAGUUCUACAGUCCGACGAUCCGCUGGCGUUGAACUGUGGACUCUGAUGGCCUCCAUCUCUCAGGCACGUGUGCCUUCUCUUAGUCCCUGUUUUCGGGUCACAAAGCUUCUCAGUACUGUGGUUUGAAAGCACCAGCUUUGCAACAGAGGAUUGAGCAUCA | 0.145

Study 3 — target: CCND2, cyclin fold, Cln2 fusion (human); technique: yeast growth competition, sequencing; medium: yeast; setting: weak parent motif; relative to: not given; direction: higher = stronger binding
Starting sequence: E2F1 docking peptide (human); PPVKRRLDLETDH; partner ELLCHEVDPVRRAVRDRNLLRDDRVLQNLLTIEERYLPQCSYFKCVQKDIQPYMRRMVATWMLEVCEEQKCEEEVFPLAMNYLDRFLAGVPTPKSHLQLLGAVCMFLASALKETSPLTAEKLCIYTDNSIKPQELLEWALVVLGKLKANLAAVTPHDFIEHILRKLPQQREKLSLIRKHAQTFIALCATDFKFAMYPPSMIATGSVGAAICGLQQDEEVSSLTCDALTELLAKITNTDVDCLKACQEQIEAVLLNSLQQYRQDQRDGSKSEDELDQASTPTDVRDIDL
Substitution | normalised enrichment score
P1Y | 0.729
T11H | 0.0183
R5Q | 0.35
R5S | 0.16
L7F | -0.113
V3D | -0.169
H13F | 0.546
D12Q | 0.303
R6S | -0.126
D8A | -0.01
D12K | 0.192
R6F | 0.427
D12Y | 0.744
T11N | -0.087
H13V | 0.272
D8S | 0.67
K4D | 0.0899
K4H | 0.112
K4M | 0.391
V3S | 0.135
K4Q | 0.439
R5H | -0.00479
H13Q | 0.327
V3A | 0.655
K4P | -0.0902

Study 4 — technique: RNA Bind-n-Seq; molecule type: RNA; medium: in vitro; concentration: 200 nM; setting: whole 134-nt RNA, ends assumed; with: 150 mM KCl; relative to: input library; direction: higher = stronger binding
Target: Fragile X messenger ribonucleoprotein 1, C-terminal low-complexity region (Fmr1, Mus musculus, UniProt P35922)
Strand | log2 enrichment
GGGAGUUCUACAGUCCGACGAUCUUCAUUCUUACUUUGAAUCUAGGAUUUUAUGGAAGACCUUGGGUUAUGGAACAGAGAAAAGAACUCUUUAGAAGGUAAAUCUUCAUUAUAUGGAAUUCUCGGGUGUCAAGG | -2.09
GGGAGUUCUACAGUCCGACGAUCUGGGAGGUGGAUUUUGUUUAUUUUUUUAGCUCAUUUCCAGGGGUGGGAAUUUUUUUUUAAUAUGUGUCAUGAUUAAAGUUGUUUUUGAAAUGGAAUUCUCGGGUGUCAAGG | 0.348
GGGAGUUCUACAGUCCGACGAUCCCUGUGCUACACAUCGUAUGUACCGAAUCGGCCCCCCCGGCCCCCCCGGCCCCCCCGGGGAAAGUAUUAUGUUACGCCGUUCGGAUCUGCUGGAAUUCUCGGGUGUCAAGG | 0.147
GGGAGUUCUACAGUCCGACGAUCUGGUAGGUGGAUUUUGUUUAUUUUUUUAGCUCAUUUCCAGGGGUGGGAAUUUUUUUUUAAUAUGUGUCAUGAAUAAAGUUGUUUUUGAAAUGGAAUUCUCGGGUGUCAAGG | 0.0283
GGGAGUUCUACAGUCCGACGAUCCAAGUCCUGUGCUACACAUCGUAUGUACCGAAUCGGAAAGGAAAGGAAAAAAAGGAAAGUAUUAUGUUACGCCGUUCGGAUCUGCACUUCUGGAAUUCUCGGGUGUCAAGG | -0.685
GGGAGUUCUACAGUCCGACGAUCUAACUUUAGAGGAUGAUCUGAUGGAUAUGGCAGUGGACGUGGAUUUGGGGAUGGCUAUAAUGGGUAUGGAGGAGGACCUGGAGGUGGCAAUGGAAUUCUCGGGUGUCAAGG | 0.261
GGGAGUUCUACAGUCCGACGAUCGUCCUGUGCUACACAUCGUAUGUACCGAAUCGGGGAAAAAAAGGGGUGGGGUUUGGGGAAAGUAUUAUGUUACGCCGUUCGGAUCUGCACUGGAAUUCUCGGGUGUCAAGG | 0.494
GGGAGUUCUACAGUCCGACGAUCUCCUGUGCUACACAUCGUAUGUACCGAAUCGGGGCCCCCCGGGCCCCCCGGCCCCCCGGAAAGUAUUAUGUUACGCCGUUCGGAUCUGCAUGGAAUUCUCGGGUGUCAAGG | -0.139
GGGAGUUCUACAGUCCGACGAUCUCCCCAGGGCCUGGCCUACUCAAUCUCUCCCACCUCAUCCUCUGGCAUGGACGCAGUCAGGGAGUCUGCUCCAAGCAGACACUGGUGGUCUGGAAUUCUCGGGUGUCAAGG | -1.09
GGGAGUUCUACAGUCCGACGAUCCAAGUCCUGUGCUACACAUCGUAUGUACCGAAUCGGGGAAGGGGAAGGGGAAGGGGAAAGUAUUAUGUUACGCCGUUCGGAUCUGCACUUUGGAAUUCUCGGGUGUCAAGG | 0.924

A few entries again (study 3):
Substitution | normalised enrichment score
R5S | 0.16
L7F | -0.113
V3D | -0.169
H13F | 0.546
D12Q | 0.303
R6S | -0.126
